Results of several laboratories.
Parts stem from different laboratories: compare values within a part only.

Series 1 — technique: protein-binding microarray; molecule type: double-stranded DNA, one strand shown; medium: in vitro; concentration: 0.8 µM; setting: whole 60-bp probe, no competitor; reading: higher = stronger binding; quantity: fluorescence intensity; all sequences stand within: … GTCTTGATTCGCTTGACGCTGCTG
Target: Centromere-binding protein 1, full length, N-terminal tag (CBF1, Saccharomyces cerevisiae, UniProt P17106, residues 1-351)
Sequence of UniProt P17106 (whole entry, looked up): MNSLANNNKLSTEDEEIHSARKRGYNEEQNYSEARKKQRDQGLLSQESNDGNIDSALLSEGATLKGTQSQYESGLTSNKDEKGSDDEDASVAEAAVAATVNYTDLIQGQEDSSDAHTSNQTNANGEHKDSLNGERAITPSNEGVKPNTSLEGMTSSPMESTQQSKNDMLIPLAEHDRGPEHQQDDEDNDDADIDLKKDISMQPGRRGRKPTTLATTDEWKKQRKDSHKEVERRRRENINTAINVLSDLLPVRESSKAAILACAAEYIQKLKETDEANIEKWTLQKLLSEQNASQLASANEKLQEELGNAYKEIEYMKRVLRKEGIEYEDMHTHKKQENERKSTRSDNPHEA
TGTACGAAGCTATTGTACGTGTGTATAGTAGTTAGG: 531 a.u.
GAAGTAGTGCAGCAATGCGTGCGTGTGCAAGCTTAG: 507 a.u.
GAACTCATAACCTATGTCACCATCTAACACCGTTAG: 546 a.u.
GAAGAAATTTCCCCTGACGTGTTGGTGTATAAGTAG: 547 a.u.
GAATGAATAATCGGTCACCTCGTGTGTCGTGATTAG: 708 a.u.

Series 2 — technique: protein-binding microarray; molecule type: double-stranded DNA, one strand shown; medium: in vitro; concentration: 250 nM; setting: 60-bp whole probe; added: salmon DNA 0.4 mg/ml; baseline: random background probes; reading: higher = stronger binding; quantity: log fluorescence; all sequences stand within: GCCTAGCAC … GTCTTGATTCGCTTGACGCTGCTG
Target: Interferon regulatory factor 7, full length, phosphomimetic (IRF7, Homo sapiens, UniProt Q92985, residues 1-503, S101K/S471D/S472D/S475D/S476D/S477D/S483D/S484D/S487D)
Sequence of UniProt Q92985 (whole entry, unmodified, looked up): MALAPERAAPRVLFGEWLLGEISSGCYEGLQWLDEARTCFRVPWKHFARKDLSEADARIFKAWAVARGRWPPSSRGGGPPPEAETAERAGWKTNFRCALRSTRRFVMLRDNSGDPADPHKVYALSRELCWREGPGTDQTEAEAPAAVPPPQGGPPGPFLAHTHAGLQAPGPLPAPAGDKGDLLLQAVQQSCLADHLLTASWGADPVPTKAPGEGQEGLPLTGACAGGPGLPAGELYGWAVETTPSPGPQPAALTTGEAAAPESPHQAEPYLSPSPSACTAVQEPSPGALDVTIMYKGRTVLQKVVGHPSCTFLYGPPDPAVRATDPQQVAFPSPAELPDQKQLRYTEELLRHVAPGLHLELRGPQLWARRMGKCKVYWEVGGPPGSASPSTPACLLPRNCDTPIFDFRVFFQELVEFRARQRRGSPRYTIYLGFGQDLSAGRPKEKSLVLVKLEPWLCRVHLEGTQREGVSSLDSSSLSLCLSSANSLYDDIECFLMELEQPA
GACGGACTGGGTTTCGAGACGTGCTAG: 2.49 z-score
TTAGATATCAGTCTCGGTTAGTGCTAG: 1.68 z-score
GACGGTCTCCGTATCCTGACGTGCTAG: -0.0608 z-score
GACGGACTGCTATTGCTGACGTGCTAG: -0.801 z-score
GACGGTATCGGGTTTCTGGACGTGCTA: 1.56 z-score

Series 3 — technique: protein binding microarray; molecule type: double-stranded DNA, one strand shown; medium: in vitro; concentration: not given; baseline: not given; reading: higher = stronger binding; quantity: E-score
Target: Histone acetyltransferase KAT6A, winged helix 2, GST fusion (KAT6A, Homo sapiens, UniProt Q92794, residues 85-181)
Setting: 8-mer, flanks averaged, mean of 2 arrays, mostly near background
Construct (chain): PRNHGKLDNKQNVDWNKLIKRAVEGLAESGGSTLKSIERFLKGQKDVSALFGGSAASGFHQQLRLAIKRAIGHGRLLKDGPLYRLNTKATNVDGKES
CAGCCCTC: 0.0401
CCGCGCTA: 0.22
TCTTTCAA: 0.0146

Further values, each from its own experiment
PhoQ, residues 284 288 289 292 302 303 AAQSYM  fold induction (PhoP, residues 12 14 15 18 19 LWHVM (Escherichia coli, UniProt P23836); Sort-seq, item: YFP reporter; E. coli; PhoQ-PhoP variant library, added: 10 µM Mg2+; baseline: high Mg2+ state, higher = stronger signaling): 16.2

Some of these lines once more (series 2):
GACGGTCTCCGTATCCTGACGTGCTAG: -0.0608 z-score
